Experimental data pooled from the literature.
Lines come from different studies, so protocols differ.
Medium: plasma
Route: oral

SMILES = C#C[C@]1(CO)O[C@@H](n2cnc3c(N)nc(F)nc32)C[C@@H]1O; species = human; dose = 15 mg; setting = single dose, fasted; Cmax = 390 nM
SMILES = C[C@@H]1CCC[C@H](n2cnc(-c3cc(Cl)ccc3-n3cc(Cl)nn3)cc2=O)c2cc(ccn2)-c2c(cnn2C(F)F)NC1=O; species = human; dose = 4 mg; setting = single dose, fasted, healthy volunteers; Cmax = 13.3 ng/mL
SMILES = CNC(=O)c1ccc(-c2cnc3ncc(Cc4ccc5ncccc5c4)n3n2)cc1F; species = human; dose = 400 mg twice daily; setting = multiple doses, steady state, patients; Cmax = 4910 ng/mL
SMILES = CS(=O)(=O)n1cc2c(n1)CN([C@H]1CO[C@H](c3cc(F)ccc3F)[C@@H](N)C1)C2; species = male human; dose = 5 mg; setting = single dose, fasted; Cmax = 142 nM
SMILES = CCCOc1ccc([C@H]2CNC(=O)N2c2ccc3[nH]cnc3c2)cc1; species = human; dose = 100 mg; setting = single dose, fasted; Cmax = 421 ng/mL
SMILES = Nc1ccc(-c2nc([C@H]3CCc4cc(-c5cc(Cl)ccc5-n5cnnn5)cc(=O)n43)c(F)[nH]2)c(F)n1; species = human; dose = 300 mg; setting = single dose, fasted; Cmax = 2080 ng/mL
SMILES = CNCc1ccc(-c2[nH]c3cc(F)cc4c3c2CCNC4=O)cc1; species = human; dose = 840 mg; setting = multiple doses, twice daily, steady state, patients; Cmax = 3030 ng/mL
SMILES = Nc1ncc(-c2cnn(CCO)c2)c2scc(-c3ccc(NC(=O)Nc4cccc(F)c4)cc3)c12; species = human; dose = 440 mg; setting = patients; Cmax = 1270 ng/mL
SMILES = CCCCCN1C[C@H](O)[C@@H](O)[C@H](O)[C@@H]1CO; species = male human; dose = 100 mg; setting = single dose, fasted, healthy volunteers; Cmax = 918 ng/mL

Repeated from above:
SMILES = CCCCCN1C[C@H](O)[C@@H](O)[C@H](O)[C@@H]1CO; species = male human; dose = 100 mg; setting = single dose, fasted, healthy volunteers; Cmax = 918 ng/mL
